# Results pooled from the literature.
# Compare with care: the assays were run in different laboratories. “And” joins repeats or separate records; there may be more than shown. Numbers after ± are the reported error.
Compound,target or system,assay,system,setting,how to read,quantity,result
CC(=O)OC/C(C)=C/CCP(=O)(OCOC(=O)CC1CCOCC1)Oc1cccc2ccccc12 (centres unmarked),,,50% Sprague-Dawley rat plasma,"100 µM, 2 h, pH 7.5, 37 °C",,remaining compound,13%
CC(C)C[C@@H]1NC(=O)[C@H](CC(N)=O)NC(=O)[C@H](CCCNC(=N)N)NC(=O)[C@H]([C@@H](C)O)NC(=O)[C@@H]2CSSC[C@@H]3NC(=O)[C@H]([C@@H](C)O)NC(=O)CNC(=O)CNC(=O)[C@H](C(C)C)NC(=O)[C@@H]4CSSC[C@H](NC(=O)[C@H]([C@@H](C)O)NC(=O)[C@H](CSSC[C@H](NC(=O)[C@H](C(C)C)NC(=O)[C@@H]5CCCN5C(=O)[C@H](CC(C)C)NC1=O)C(=O)NCC(=O)N[C@@H](CCC(=O)O)C(=O)N[C@@H]([C@@H](C)O)C(=O)N4)NC(=O)CNC(=O)[C@@H]1CCCN1C(=O)[C@H]([C@@H](C)O)NC(=O)[C@H](CC(N)=O)NC3=O)C(=O)N[C@@H](CO)C(=O)N[C@@H](Cc1c[nH]c3ccccc13)C(=O)N1CCC[C@H]1C(=O)N[C@@H](C(C)C)C(=O)N2,,HPLC,water,"180 µM, 14 days, 37 °C, deamidation stability",,remaining peptide,98.3 ± 1.3%
CC[C@@H](C)[C@@H](NC(=O)[C@@H](Cc1ccc(O)cc1)NC(=O)[C@H]1CCCN1C(=O)[C@@H](CCCNC(=N)N)NC(=O)[C@H](N)Cc1c[nH]cn1)C(=O)N[C@H](C)C(=O)N[C@H](Cc1c[nH]cn1)C(=O)N[C@H](CCCNC(=N)N)C(=O)N[C@@H](C(=O)N[C@H](Cc1ccc(O)cc1)C(=O)N[C@H](CO)C(=O)N[C@H](Cc1ccccc1)C(N)=O)C(C)C,,,10% human serum,1 h,,remaining compound,103% and 100% and 102%
CC(C)(C)[C@H](NC(=O)C(F)(F)F)C(=O)N1C[C@H]2[C@@H]([C@H]1C(=O)N[C@H](C#N)C[C@@H]1CCNC1=O)C2(C)C,,,human liver microsomes,60 min,,remaining compound,101%
CSCC[C@H](NC(=O)[C@H](N)Cc1ccccc1)C(=O)N[C@@H](CCCNC(=N)N)C(=O)N[C@@H](Cc1c[nH]c2ccccc12)C(=O)N[C@@H](CO)C(=O)N[C@@H](CCCNC(=N)N)C(=O)N[C@@H](CCCCN)C(=O)N[C@@H](CCSC)C(=O)N1CCC[C@H]1C(=O)N[C@@H](CS)C(=O)N[C@H](C(=O)N[C@@H](CO)C(N)=O)C(C)C,,"12G5 competition, SUP-T1 cells",human plasma,"20 µM, 8 h, 37 °C",,remaining activity,46 ± 1%
NNc1ccccc1,,,PBS,"0 h, 37 °C",reference: initial amount,remaining fraction,1 and 0.99 and 0.98
CC[C@@H](C)[C@@H](NC(=O)[C@@H](Cc1ccc(O)cc1)NC(=O)[C@H]1CCCN1C(=O)[C@@H](CCCNC(=N)N)NC(=O)[C@H](N)Cc1c[nH]cn1)C(=O)N[C@H](C)C(=O)N[C@H](Cc1c[nH]cn1)C(=O)N[C@H](CCCNC(=N)N)C(=O)N[C@H](CCCCNC(=O)c1cccc(S(=O)(=O)F)c1)C(=O)N[C@H](Cc1ccc(O)cc1)C(=O)N[C@H](CO)C(=O)N[C@H](Cc1ccccc1)C(N)=O,,,10% human serum,36 h,,remaining compound,110% and 108% and 109%
CC[C@@H](C)[C@@H](NC(C)=O)C(=O)N[C@@H](CC(C)C)C(=O)N[C@@H](CCCNC(=N)N)C(=O)N[C@@H](Cc1c[nH]c2ccccc12)C(=O)N[C@@H](CO)C(=O)N[C@@H](CCCNC(=N)N)C(=O)N[C@@H](CCCCN)C(=O)N[C@@H](CC(C)C)C(=O)N1CCC[C@H]1C(=O)N[C@@H](CS)C(=O)N[C@H](C(=O)N[C@@H](CO)C(N)=O)C(C)C,,"12G5 competition, SUP-T1 cells",human plasma,"concentration not given, 2 h",,remaining activity,60 ± 8%
CN(C)CCCN1c2ccccc2CCc2ccccc21,Plasmodium falciparum,,3D7,,,IC50,12.6 µM
CC[C@H](C)[C@H](NC(=O)[C@H](CCCCN)NC(=O)[C@H](CCC(=O)O)NC(=O)[C@H](CCCCN)NC(=O)[C@H](CO)NC(=O)[C@H](CCCCN)NC(=O)[C@H](CCCNC(=N)N)NC(=O)[C@H](Cc1ccccc1)NC(=O)[C@H](Cc1ccccc1)NC(=O)[C@H](CC(=O)O)NC(=O)CNC(=O)[C@H](CC(C)C)NC(=O)[C@@H](N)CC(C)C)C(=O)NCC(=O)N[C@@H](CCCCN)C(=O)N[C@@H](CCC(=O)O)C(=O)N[C@@H](Cc1ccccc1)C(=O)N[C@@H](CCCCN)C(=O)N[C@@H](CCCNC(=N)N)C(=O)N[C@H](C(=O)N[C@H](C(=O)N[C@@H](CCC(N)=O)C(=O)N[C@@H](CCCNC(=N)N)C(=O)N[C@H](C(=O)N[C@@H](CCCCN)C(=O)N[C@@H](CC(=O)O)C(=O)N[C@@H](Cc1ccccc1)C(=O)N[C@@H](CC(C)C)C(=O)N[C@@H](CCCNC(=N)N)C(=O)N[C@@H](CC(N)=O)C(=O)N[C@@H](CC(C)C)C(=O)N[C@H](C(=O)N1CCC[C@H]1C(=O)N[C@@H](CCCNC(=N)N)C(=O)N[C@H](C(=O)N[C@@H](CCC(=O)O)C(=O)N[C@@H](CO)C(=O)O)[C@@H](C)O)C(C)C)[C@@H](C)CC)C(C)C)[C@@H](C)CC,,LC-MS,buffer with human neutrophil elastase,"40 µM, 720 min, pH 7.5, 37 °C",reference: 0 h,remaining intact peptide,0%
CC(C)C[C@@H]1NC(=O)CNC(=O)[C@H](CC(N)=O)NC(=O)[C@H](CCCNC(=N)N)NC(=O)[C@H]([C@@H](C)O)NC(=O)[C@@H]2CSSC[C@@H]3NC(=O)[C@H]([C@@H](C)O)NC(=O)CNC(=O)CNC(=O)[C@H](C(C)C)NC(=O)[C@@H]4CSSC[C@H](NC(=O)[C@H]([C@@H](C)O)NC(=O)[C@H](CSSC[C@H](NC(=O)[C@H](CCCCN)NC(=O)[C@@H]5CCCN5C1=O)C(=O)NCC(=O)N[C@@H](CCC(=O)O)C(=O)N[C@@H]([C@@H](C)O)C(=O)N4)NC(=O)CNC(=O)[C@@H]1CCCN1C(=O)[C@H]([C@@H](C)O)NC(=O)[C@H](CC(N)=O)NC3=O)C(=O)N[C@@H](CO)C(=O)N[C@@H](Cc1c[nH]c3ccccc13)C(=O)N1CCC[C@H]1C(=O)N[C@@H](C(C)C)C(=O)N2,,HPLC,ammonium bicarbonate 0.1 M,"180 µM, 7 days, pH 9.0, 37 °C, deamidation stability",,remaining peptide,53.3 ± 2.3%
O=C/C=C/c1ccccc1,,,FaSSIF,"2 h, pH 6.45, 37 °C",,remaining concentration,320 ± 30 µg/mL
CC(C)(C)c1cc(C=C(C#N)C#N)cc(C(C)(C)C)c1O,Plasmodium falciparum,,Dd2,,,IC50,0.93 µM
CC(C)[C@@H]1NC(=O)[C@@H]2CSSC[C@@H]3NC(=O)[C@H]([C@@H](C)O)NC(=O)[C@@H]4CSSC[C@H](NC(=O)[C@H](C(C)C)NC(=O)[C@@H]5CCCN5C(=O)[C@H](CCCCN)NC(=O)CNC(=O)[C@H](CC(N)=O)NC(=O)[C@H](CCCNC(=N)N)NC(=O)[C@H]([C@@H](C)O)NC(=O)[C@H](CSSC[C@H](NC(=O)[C@H]([C@@H](C)O)NC(=O)CNC(=O)CNC1=O)C(=O)N[C@@H](CC(N)=O)C(=O)N[C@@H]([C@@H](C)O)C(=O)N1CCC[C@H]1C(=O)NCC(=O)N4)NC(=O)[C@H](C(C)C)NC(=O)[C@@H]1CCCN1C(=O)[C@H](Cc1c[nH]c4ccccc14)NC(=O)[C@H](CO)NC3=O)C(=O)NCC(=O)N[C@@H](CCC(=O)O)C(=O)N[C@@H]([C@@H](C)O)C(=O)N2,,HPLC,water,"180 µM, 14 days, 37 °C, deamidation stability",,remaining peptide,100%
CC(C)[C@@H]1NC(=O)CNC(=O)[C@H](CC(N)=O)NC(=O)[C@H](CCCNC(=N)N)NC(=O)[C@H](Cc2ccc(O)cc2)NC(=O)[C@H](C(C)C)NC(=O)[C@@H](NC(=O)[C@@H](NC(=O)[C@H](CC(N)=O)NC(=O)[C@H](Cc2c[nH]c3ccccc23)NC(=O)[C@H](C)NC(=O)[C@H](Cc2ccccc2)NC(=O)CN)C(C)C)CSSC[C@@H](C(=O)N[C@@H](Cc2cnc[nH]2)C(=O)N[C@@H](CCCNC(=N)N)C(=O)N[C@@H](CCCNC(=N)N)C(=O)N[C@@H](C)C(=O)N[C@@H](CC(N)=O)C(N)=O)NC(=O)[C@H](C(C)C)NC(=O)[C@H](CCCNC(=N)N)NC1=O,,HPLC,mouse mammary gland homogenate,"2560 µM, 6.00 h, 37 °C, 50 mg/mL tissue",,remaining peptide,58.8% and 57.1% and 53.3%
CSCC[C@H](NC(=O)[C@H](CCCCN)NC(=O)[C@H](CCCNC(=N)N)NC(=O)[C@H](CO)NC(=O)[C@H](Cc1c[nH]c2ccccc12)NC(=O)[C@H](CCCNC(=N)N)NC(=O)[C@H](CC(C)C)NC(=O)[C@H](CO)NC(C)=O)C(=O)N1CCC[C@H]1C(=O)N[C@@H](CS)C(=O)N[C@H](C(=O)N[C@@H](CO)C(N)=O)C(C)C,,"12G5 competition, SUP-T1 cells",human plasma,"concentration not given, 2 h",,remaining activity,77 ± 9%
CC(C)C[C@@H]1NC(=O)CNC(=O)[C@H](CCCCN)NC(=O)[C@H](CCCNC(=N)N)NC(=O)[C@H]([C@@H](C)O)NC(=O)[C@@H]2CSSC[C@@H]3NC(=O)[C@H]([C@@H](C)O)NC(=O)CNC(=O)CNC(=O)[C@H](C(C)C)NC(=O)[C@@H]4CSSC[C@H](NC(=O)[C@H](CCCCN)NC(=O)[C@H](CSSC[C@H](NC(=O)[C@H](C(C)C)NC(=O)[C@@H]5CCCN5C1=O)C(=O)NCC(=O)N[C@@H](CCC(=O)O)C(=O)N[C@@H]([C@@H](C)O)C(=O)N4)NC(=O)CNC(=O)[C@@H]1CCCN1C(=O)[C@H]([C@@H](C)O)NC(=O)[C@H](CC(N)=O)NC3=O)C(=O)N[C@@H](CO)C(=O)N[C@@H](Cc1c[nH]c3ccccc13)C(=O)N1CCC[C@H]1C(=O)N[C@@H](C(C)C)C(=O)N2,,HPLC,ammonium bicarbonate,"180 µM, 7 days, pH 9.0, 25 °C, deamidation stability",,remaining peptide,100%

# For quick reference, copied from above:
Compound,target or system,assay,system,setting,how to read,quantity,result
CC(C)[C@@H]1NC(=O)[C@@H]2CSSC[C@@H]3NC(=O)[C@H]([C@@H](C)O)NC(=O)[C@@H]4CSSC[C@H](NC(=O)[C@H](C(C)C)NC(=O)[C@@H]5CCCN5C(=O)[C@H](CCCCN)NC(=O)CNC(=O)[C@H](CC(N)=O)NC(=O)[C@H](CCCNC(=N)N)NC(=O)[C@H]([C@@H](C)O)NC(=O)[C@H](CSSC[C@H](NC(=O)[C@H]([C@@H](C)O)NC(=O)CNC(=O)CNC1=O)C(=O)N[C@@H](CC(N)=O)C(=O)N[C@@H]([C@@H](C)O)C(=O)N1CCC[C@H]1C(=O)NCC(=O)N4)NC(=O)[C@H](C(C)C)NC(=O)[C@@H]1CCCN1C(=O)[C@H](Cc1c[nH]c4ccccc14)NC(=O)[C@H](CO)NC3=O)C(=O)NCC(=O)N[C@@H](CCC(=O)O)C(=O)N[C@@H]([C@@H](C)O)C(=O)N2,,HPLC,water,"180 µM, 14 days, 37 °C, deamidation stability",,remaining peptide,100%
